{"data": "Measured values collected from several papers", "note": "A part holds a random share of what one study measured. Positions count from the first letter of the parent shown."}
{"data": "Block 1", "target": "RNA binding protein fox-1 homolog 2, RRM domain, GST-SBP tag (RBFOX2, Homo sapiens, UniProt O43251-10, residues 100-194)", "technique": "RNA Bind-n-Seq", "form": "RNA", "sample": "in vitro", "tested at": "365 nM", "notes": "natural RNA segment, single round, ends assumed", "relative to": "no-protein control", "direction": "higher = stronger binding", "Target sequence (chain)": "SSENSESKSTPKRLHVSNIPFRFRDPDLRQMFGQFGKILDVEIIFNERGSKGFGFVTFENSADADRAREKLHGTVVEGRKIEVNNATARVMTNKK"}
{"Strand": "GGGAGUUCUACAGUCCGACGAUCAUGCUGUUACAUCCAGAAUAUUCAUUAGGCUGCCCCACAGCUCUUCUGUAUAUAUAGAGACCACAGAGUUAGGAUUUUUUUUAAUGAGAAAAAUACUGUAUUUAAAAUGUUGGAAUUCUCGGGUGCCAA", "RBNS enrichment (R)": 0.304}
{"Strand": "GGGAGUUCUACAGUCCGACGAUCAUAGCUGUUCUGUCUCCUGGAGACCAAAGCUGGCUUGGAGGAAAAAAUGAUGCCCACAGUCUUGGGAAAAAUACCUGCUGGGAAGGAUGGCAUCUUUUCUGCGCGGUGGGUGGAAUUCUCGGGUGCCAA", "RBNS enrichment (R)": 0.647}
{"Strand": "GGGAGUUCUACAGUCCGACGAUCGCGGGCUUGCUGCUUCACCCUUGGGGAUGAAAUAAUGGAAGCUGGUUAAAGUGGAUGAGGUUGGAAAGAGUUGCCAUAAUGAGGUCCCACGUGGCUUCUUCGAUAGGAGCUGGAAUUCUCGGGUGCCAA", "RBNS enrichment (R)": 1.26}
{"Strand": "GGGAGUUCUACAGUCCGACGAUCCCACAGAGGCCACAAAAUGUUGCAAGUCAUGAUGGAUGGAAAUAUGUUCUAACAGCAUCUGCCUCUAUUCAAUUUAAUUCUUAUUUCUGUGUUACUCAUGUACAUUGGUCUGGAAUUCUCGGGUGCCAA", "RBNS enrichment (R)": 0.97}
{"Strand": "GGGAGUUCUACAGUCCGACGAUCUAUUGAAAGGACGCCUCAGAAAUGCUUUGUUUUCUUUUACGAUGUAUUCAGAAGCCUUUACUGAUUAAAGUUUUCUUUUAUUUGGGUGGCCGGGAGAGACCCAGGGAGGUUGGAAUUCUCGGGUGCCAA", "RBNS enrichment (R)": 0.884}
{"Strand": "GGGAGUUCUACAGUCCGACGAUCAGCAGCUGCUGGUGGCUUGGGACAUCAGUGGGGCCAAGGGUUCUCUGUCCCUGGUUCAACUGUGAUUUGGCUUUCCCGUGUCUUUCCUGGUGAUGCCUUGUUUGGGGUUCUGGAAUUCUCGGGUGCCAA", "RBNS enrichment (R)": 0.306}
{"Strand": "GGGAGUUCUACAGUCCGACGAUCACUCUGAGGAUUAUGUGAACAGGACAUUUUUCAUUUGUGAAUUUAAUGCUAUACUGUCAAGGUACUUGCUUGUGUCUGAACUCUAGUGCACUUAUGAUUUUGUAGACCAUUGGAAUUCUCGGGUGCCAA", "RBNS enrichment (R)": 0.451}
{"Strand": "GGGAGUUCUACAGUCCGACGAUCACACUUUUGACAGUAUUUUGUUUUGCCCUGAUUUGGGGGAUUGUUUUGUUUUGGUGGUUGUUUUGGAAAAACAGUUUAUAAACUGAUUUUUGUAGUUUUGGUAUUUAAAGUGGAAUUCUCGGGUGCCAA", "RBNS enrichment (R)": 5.27}
{"data": "Block 2", "target": "ABI1, truncated, D143A, DHFR fusion (Arabidopsis thaliana)", "technique": "DHFR PCA, deep sequencing", "sample": "yeast", "notes": "methotrexate growth selection, single substitutions", "together with": "(+)-ABA 4.8 µM", "relative to": "wild-type fitted maximum", "direction": "higher = stronger binding", "starting sequence": "PYL1, truncated, DHFR fusion (Arabidopsis thaliana); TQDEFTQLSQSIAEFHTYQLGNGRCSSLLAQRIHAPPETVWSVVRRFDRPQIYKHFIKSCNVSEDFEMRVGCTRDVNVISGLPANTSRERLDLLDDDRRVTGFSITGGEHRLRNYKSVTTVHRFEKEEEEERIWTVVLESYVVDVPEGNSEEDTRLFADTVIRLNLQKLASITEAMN"}
{"Substitution": "F103Y", "relative binding score [%]": 56}
{"Substitution": "F47C", "relative binding score [%]": 1.83}
{"Substitution": "I79V", "relative binding score [%]": 83.9}
{"data": "Block 3", "target": "RING finger protein unkempt homolog, zinc fingers 1-6, GST-SBP tag (UNK, Homo sapiens, UniProt Q9C0B0, residues 30-357)", "technique": "RNA Bind-n-Seq", "form": "RNA", "sample": "in vitro", "tested at": "not given", "notes": "RNA with constant flanks, human-mouse chimeric sites, ends assumed", "relative to": "input RNA pool", "direction": "higher = stronger binding", "chain of UniProt Q9C0B0 (30-357, looked up)": "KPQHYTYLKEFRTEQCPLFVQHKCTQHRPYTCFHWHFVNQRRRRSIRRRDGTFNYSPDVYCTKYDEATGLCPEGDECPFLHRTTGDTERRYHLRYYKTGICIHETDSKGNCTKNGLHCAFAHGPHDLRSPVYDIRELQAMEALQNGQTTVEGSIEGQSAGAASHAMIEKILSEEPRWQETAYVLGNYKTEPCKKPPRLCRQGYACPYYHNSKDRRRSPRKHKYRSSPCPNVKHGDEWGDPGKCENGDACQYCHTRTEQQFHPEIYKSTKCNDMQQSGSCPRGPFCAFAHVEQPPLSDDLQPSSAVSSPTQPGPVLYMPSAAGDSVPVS"}
{"Strand": "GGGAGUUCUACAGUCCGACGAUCUUAAUCCCCUUUACUGCUCCCCCACUUCUCAUGGUAAUAACAAAGUCUUAUAUUCCCGUCCUAGCUUUCACUCAGAUGGCUUAUGGAGCCAGUUUCCUAGCUUUCUUGGGAGGGAUCAGACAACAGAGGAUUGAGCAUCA", "bound/input enrichment": "0.374 ratio"}
{"Strand": "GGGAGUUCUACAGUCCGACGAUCCAGCCUCAGAGCCCAGACUUCCUGGACAUUACCAACCCUAAAGCGGUAUUAGAAAAUGCAUUGAGAAACUUCGCCUGUCUGACGACUGGGGAUGUGAUUGCUAUCAACUACAAUGAGAAGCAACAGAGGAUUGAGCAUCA", "bound/input enrichment": "0.503 ratio"}
{"Strand": "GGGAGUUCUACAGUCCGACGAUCCAGUCCCGCGACAGCGUUGCAGGACGAUGUGAACAAAAACUCAAAGCGGACCCUCUAUUGUAGUUCUUGAUUCUCGAAAUGUGCUAUUAUUGUUUGUCUUUUUUUUUUUUUUUUUAAAGACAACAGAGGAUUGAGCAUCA", "bound/input enrichment": "0.958 ratio"}
{"Strand": "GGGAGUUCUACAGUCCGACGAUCGAGUCGAGCAAACUUGAAACAAUUCGUUAUCUUGCAGAGCUUCGGUGCACUUGCUUGGCGAUAGCAUUGGGGUUUUAUAUAGAUUCUAAGGAGAACUGACGAUGAUGCUGCCGCUGCUGCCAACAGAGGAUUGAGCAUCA", "bound/input enrichment": "0.206 ratio"}
{"Strand": "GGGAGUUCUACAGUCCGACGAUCCACACACUCUUCUGCGGCACCCUCAUUUUGCAGGCCCGGGCCUAUGUGGGACCGCACGUCCUGGCAGUGGUGACUCGCACAGGGUUCUGCACGGCAAAAGGGGGCCUGGUGAGCUCCAUCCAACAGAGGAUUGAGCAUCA", "bound/input enrichment": "0.169 ratio"}
{"Strand": "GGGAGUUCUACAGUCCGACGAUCUACAUCACCAAUGUCCUACAAAAUCCUGACUUGGCUCUGAGAAUGGCUGUGCGGAACAACUUAGCUGGUGCUGAAGAACUCUUUGCCCGGAAAUUUAAUGCUCUCUUCGCCCAGGGAAACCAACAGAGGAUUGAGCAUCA", "bound/input enrichment": "0.267 ratio"}
{"Strand": "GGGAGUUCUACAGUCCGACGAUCAAACAUCUGUCUUUAAGCAUUCCAAGCGAGAAUGCUGGGGUGAUCAUAAUUACCCACGUGCCUUCUGACUGAGCUUUAAUGCUGUUCCAUGUUACAUCUUUCCUUCACUCCAGAAUUGUUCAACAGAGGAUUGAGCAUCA", "bound/input enrichment": "0.134 ratio"}
{"data": "Single results of other studies"}
{"Molecule": "PhoQ, residues 284 288 289 292 302 303 TYGVAM", "target": "PhoP, residues 12 14 15 18 19 IQSYL (Escherichia coli, UniProt P23836)", "assay": "Sort-seq, measured: YFP reporter", "system": "E. coli", "conditions": "PhoQ-PhoP variant library, together with: 10 µM Mg2+", "how to read": "relative to: high Mg2+ state, higher = stronger signaling", "measurement": "fold induction", "result": 14.6}
{"note": "A few entries again (block 3):"}
{"Strand": "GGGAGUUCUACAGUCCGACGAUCCACACACUCUUCUGCGGCACCCUCAUUUUGCAGGCCCGGGCCUAUGUGGGACCGCACGUCCUGGCAGUGGUGACUCGCACAGGGUUCUGCACGGCAAAAGGGGGCCUGGUGAGCUCCAUCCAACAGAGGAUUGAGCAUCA", "bound/input enrichment": "0.169 ratio"}
{"Strand": "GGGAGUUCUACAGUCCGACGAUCUUAAUCCCCUUUACUGCUCCCCCACUUCUCAUGGUAAUAACAAAGUCUUAUAUUCCCGUCCUAGCUUUCACUCAGAUGGCUUAUGGAGCCAGUUUCCUAGCUUUCUUGGGAGGGAUCAGACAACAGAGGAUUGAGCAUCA", "bound/input enrichment": "0.374 ratio"}
